Values quoted from earlier work as cited in several papers.
Compare with care: the assays were run in different laboratories. pIC50: −log10 of the molar value. Values after ≈ are worked out from the molar mass of the structure shown.
Chain of UniProt Q9UF33 (whole entry, looked up): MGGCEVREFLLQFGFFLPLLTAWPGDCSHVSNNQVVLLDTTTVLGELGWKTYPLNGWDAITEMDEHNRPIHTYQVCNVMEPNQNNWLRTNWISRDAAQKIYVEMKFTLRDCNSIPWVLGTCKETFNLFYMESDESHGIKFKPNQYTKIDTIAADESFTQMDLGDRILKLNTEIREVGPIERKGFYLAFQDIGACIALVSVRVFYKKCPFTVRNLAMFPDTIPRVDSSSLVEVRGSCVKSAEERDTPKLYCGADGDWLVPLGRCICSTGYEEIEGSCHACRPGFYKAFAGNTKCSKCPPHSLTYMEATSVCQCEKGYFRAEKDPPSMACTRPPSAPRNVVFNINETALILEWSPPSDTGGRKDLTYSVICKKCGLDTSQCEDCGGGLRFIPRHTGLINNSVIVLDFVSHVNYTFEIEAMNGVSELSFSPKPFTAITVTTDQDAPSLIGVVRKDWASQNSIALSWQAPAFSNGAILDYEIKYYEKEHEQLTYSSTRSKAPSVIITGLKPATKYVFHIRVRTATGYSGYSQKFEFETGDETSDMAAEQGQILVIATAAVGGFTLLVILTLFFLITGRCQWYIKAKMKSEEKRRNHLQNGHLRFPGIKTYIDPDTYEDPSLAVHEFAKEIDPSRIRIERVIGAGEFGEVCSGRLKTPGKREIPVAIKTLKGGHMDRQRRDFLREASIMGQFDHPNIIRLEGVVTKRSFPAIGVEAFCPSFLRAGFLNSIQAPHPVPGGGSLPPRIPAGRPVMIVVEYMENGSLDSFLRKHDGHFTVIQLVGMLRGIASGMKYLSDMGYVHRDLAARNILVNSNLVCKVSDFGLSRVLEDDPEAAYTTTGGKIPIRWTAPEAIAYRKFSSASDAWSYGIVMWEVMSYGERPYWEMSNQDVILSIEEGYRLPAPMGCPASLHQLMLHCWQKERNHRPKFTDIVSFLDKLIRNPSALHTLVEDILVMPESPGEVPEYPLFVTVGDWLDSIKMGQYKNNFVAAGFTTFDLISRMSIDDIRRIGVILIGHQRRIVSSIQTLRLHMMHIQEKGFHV

Compound	tested on	assay	system	setting	scale	quantity	result
Cc1c2c(nn1C)CSCc1cc(n(C)n1)CSc1cc(c3ccccc3c1)OCCCc1c(C(=O)O)n(C)c3c-2c(Cl)ccc13			mouse, plasma	intravenous, 100 mg/kg single, 24 h		plasma concentration	~3 ng/mL
O=C1CC[C@H](N2Cc3cc(N4CCN(CC5CCN(c6ccc([C@@H]7c8ccc(O)cc8CC[C@@H]7c7ccccc7)cc6)CC5)CC4)ccc3C2=O)C(=O)N1			heavily pretreated patients	dose not given, monotherapy, interim data		tolerability	not toxic
Cc1ccc(C)c(OCCCC(C)(C)C(=O)O)c1			urine	concentration not given		urinary excretion as glucuronide conjugates	~70%
CCCCC(CC)COC(=O)c1ccc(O)cc1 (stereo not drawn)				pH 7.4		logD	4.02
C[C@H]1COCCN1c1nc(-c2cnc(N)cc2C(F)F)nc(N2CCOCC2)n1	K562					GI50	1060 nM
CNC(C)C1CCC(N)C(OC2C(N)CC(N)C(OC3OCC(C)(O)C(NC)C3O)C2O)O1 (stereo not drawn)	Klebsiella pneumoniae		clinical isolate RKI-No_268/15			MIC	1 µg/mL (≈ 2.09 µM)
Cc1cc(Nc2ccc(C(F)(F)F)c(F)c2)n2ncnc2n1			PBS	pH 6.5		kinetic solubility	10 µM (≈ 3.11 µg/mL)
COc1ccccc1OCC(O)CN1CCN(CC(=O)Nc2c(C)cccc2C)CC1 (stereo not drawn)			human adults	dose not given		bioavailability	35 to 50%
CNC(=O)n1ccc2cc(Oc3ccnc(NC(=O)c4ccc(C5CCN(CCO)CC5)cc4)c3)c(OCCOC)cc21			human			renal excretion	~6%
CN1CCN(c2cccc3c2CCN(C(=O)/C=C/c2c(-n4cnnn4)ccc(Cl)c2F)[C@@H]3C(=O)Nc2ccc(C(=O)O)cc2)C(=O)C1			healthy human, infusion site pain	intravenous, dose not given		adverse event incidence	5.9%
CC(C)[C@H](N)C(=O)OCC(CO)OCn1cnc2c(=O)[nH]c(N)nc21 (stereo partly drawn)			rat			oral bioavailability	92%
CC(C)C[C@@H](NC(=O)[C@H](C)NC(=O)CNC(=O)[C@@H](NC=O)C(C)C)C(=O)N[C@@H](C)C(=O)N[C@@H](C(=O)N[C@H](C(=O)N[C@@H](C(=O)N[C@@H](Cc1c[nH]c2ccccc12)C(=O)N[C@H](CC(C)C)C(=O)N[C@@H](Cc1c[nH]c2ccccc12)C(=O)N[C@H](CC(C)C)C(=O)N[C@@H](Cc1c[nH]c2ccccc12)C(=O)N[C@H](CC(C)C)C(=O)N[C@@H](Cc1c[nH]c2ccccc12)C(=O)NCCO)C(C)C)C(C)C)C(C)C		hemolysis	rabbit red blood cells			HC10	160 nM
C[C@@H](Oc1ccc(S(C)(=O)=O)cc1C(=O)N1C[C@@H]2C[C@]2(c2cc(C(F)(F)F)on2)C1)C(F)(F)F			human	oral, 25 mg single tablet, together with: meal, high-fat, high-calorie	relative to: fasted state	bioavailability	increased
C[Si](C)(C)O[Si](C)(C)C				28 °C		log KAW	0.27
Cc1c(C#N)cccc1[C@@H](C)Nc1nnc(C)c2cnc(N3CCOCC3)cc12	ASPC1	3D cell viability		14 d		pIC50	< 6.00
Cc1nc(NC(=O)N2CCC[C@H]2C(N)=O)sc1-c1ccnc(C(C)(C)C(F)(F)F)c1			human	daily dosing		time to steady state	≤ 3 days
CC1(C)S[C@@H]2[C@H](NC(=O)[C@H](N)c3ccccc3)C(=O)N2[C@H]1C(=O)O	Klebsiella pneumoniae		clinical isolate RKI-No_268/15			MIC	> 16 µg/mL
Nc1cc(C(F)(F)F)c(-c2nc(N3CCOCC3)nc(N3CCOCC3)n2)cn1	EPHA6 (Homo sapiens, UniProt Q9UF33)	enzyme activity		10 µM	relative to: untreated	remaining activity	89%
OC(Cn1cncn1)(Cn1cncn1)c1ccc(F)cc1F		perpetrator, refers to: (R)-warfarin	human	dose not given	relative to: without compound	AUC increase	107%
N#C[C@@]1(c2ccc3c(N)ncnn23)O[C@H](CO)[C@@H](O)[C@H]1O			dog, plasma	oral, 5 mg/kg, 4 h, solution		plasma concentration	1330 ng/mL
CNC(=O)c1ccc(Nc2ncc(C(F)(F)F)c(NCc3nccnc3N(C)S(C)(=O)=O)n2)cc1			patients with KRAS mutant NSCLC	dose not given, treatment-emergent, any grade	relative to: patients	patients with increased bilirubin	24%
CCCCCCCCCCCCCCCC(=O)N[C@@H](CCC(=O)NCCCC[C@H](NC(=O)[C@H](C)NC(=O)[C@H](C)NC(=O)[C@H](CCC(N)=O)NC(=O)CNC(=O)[C@H](CCC(=O)O)NC(=O)[C@H](CC(C)C)NC(=O)[C@H](Cc1ccc(O)cc1)NC(=O)[C@H](CO)NC(=O)[C@H](CO)NC(=O)[C@@H](NC(=O)[C@H](CC(=O)O)NC(=O)[C@H](CO)NC(=O)[C@@H](NC(=O)[C@H](Cc1ccccc1)NC(=O)[C@@H](NC(=O)CNC(=O)[C@H](CCC(=O)O)NC(=O)[C@H](C)NC(=O)[C@@H](N)Cc1cnc[nH]1)[C@@H](C)O)[C@@H](C)O)C(C)C)C(=O)N[C@@H](CCC(=O)O)C(=O)N[C@@H](Cc1ccccc1)C(=O)N[C@H](C(=O)N[C@@H](C)C(=O)N[C@@H](Cc1c[nH]c2ccccc12)C(=O)N[C@@H](CC(C)C)C(=O)N[C@H](C(=O)N[C@@H](CCCNC(=N)N)C(=O)NCC(=O)N[C@@H](CCCNC(=N)N)C(=O)NCC(=O)O)C(C)C)[C@@H](C)CC)C(=O)O			overweight or obese adults	3.0 mg		cholelithiasis incidence	1.5%
Nc1ncnc2c1ncn2[C@@H]1O[C@H](CO)C[C@@H]1F			dog			oral bioavailability	83%
CCCC(C)C(=O)O (stereo not drawn)		pericardial and yolk oedema	zebrafish embryo	nominal concentration		EC10	373000 nM
Nc1cccc2c1C(=O)N(C1CCC(=O)NC1=O)C2=O (stereo not drawn)			relapsed refractory multiple myeloma patients	dose not given, all grades		renal failure incidence	1%
CCOc1c([C@H](C)n2nc(C)c3c(N)ncnc32)cc(Cl)c(F)c1[C@@H]1CNC(=O)C1			human	oral, 20 and 30 mg once daily, high-fat meal	relative to: fasted	AUC(0-8h) decrease	26%
Cc1cc2c(s1)Nc1ccccc1N=C2N1CCN(C)CC1			healthy male volunteers	together with: carbamazepine 200 mg twice daily for 2 weeks		clearance increase	46%

Repeated from above:
Compound	tested on	assay	system	setting	scale	quantity	result
CC(C)C[C@@H](NC(=O)[C@H](C)NC(=O)CNC(=O)[C@@H](NC=O)C(C)C)C(=O)N[C@@H](C)C(=O)N[C@@H](C(=O)N[C@H](C(=O)N[C@@H](C(=O)N[C@@H](Cc1c[nH]c2ccccc12)C(=O)N[C@H](CC(C)C)C(=O)N[C@@H](Cc1c[nH]c2ccccc12)C(=O)N[C@H](CC(C)C)C(=O)N[C@@H](Cc1c[nH]c2ccccc12)C(=O)N[C@H](CC(C)C)C(=O)N[C@@H](Cc1c[nH]c2ccccc12)C(=O)NCCO)C(C)C)C(C)C)C(C)C		hemolysis	rabbit red blood cells			HC10	160 nM
C[C@@H](Oc1ccc(S(C)(=O)=O)cc1C(=O)N1C[C@@H]2C[C@]2(c2cc(C(F)(F)F)on2)C1)C(F)(F)F			human	oral, 25 mg single tablet, together with: meal, high-fat, high-calorie	relative to: fasted state	bioavailability	increased
